# Assay results gathered from unrelated publications.
# Each line is one published result; not all experiments were run side by side.
# GBA2: Beta-glucosidase (GBA2, Homo sapiens, UniProt Q9HCG7)
# Sequence of UniProt Q9HCG7 (whole entry, looked up): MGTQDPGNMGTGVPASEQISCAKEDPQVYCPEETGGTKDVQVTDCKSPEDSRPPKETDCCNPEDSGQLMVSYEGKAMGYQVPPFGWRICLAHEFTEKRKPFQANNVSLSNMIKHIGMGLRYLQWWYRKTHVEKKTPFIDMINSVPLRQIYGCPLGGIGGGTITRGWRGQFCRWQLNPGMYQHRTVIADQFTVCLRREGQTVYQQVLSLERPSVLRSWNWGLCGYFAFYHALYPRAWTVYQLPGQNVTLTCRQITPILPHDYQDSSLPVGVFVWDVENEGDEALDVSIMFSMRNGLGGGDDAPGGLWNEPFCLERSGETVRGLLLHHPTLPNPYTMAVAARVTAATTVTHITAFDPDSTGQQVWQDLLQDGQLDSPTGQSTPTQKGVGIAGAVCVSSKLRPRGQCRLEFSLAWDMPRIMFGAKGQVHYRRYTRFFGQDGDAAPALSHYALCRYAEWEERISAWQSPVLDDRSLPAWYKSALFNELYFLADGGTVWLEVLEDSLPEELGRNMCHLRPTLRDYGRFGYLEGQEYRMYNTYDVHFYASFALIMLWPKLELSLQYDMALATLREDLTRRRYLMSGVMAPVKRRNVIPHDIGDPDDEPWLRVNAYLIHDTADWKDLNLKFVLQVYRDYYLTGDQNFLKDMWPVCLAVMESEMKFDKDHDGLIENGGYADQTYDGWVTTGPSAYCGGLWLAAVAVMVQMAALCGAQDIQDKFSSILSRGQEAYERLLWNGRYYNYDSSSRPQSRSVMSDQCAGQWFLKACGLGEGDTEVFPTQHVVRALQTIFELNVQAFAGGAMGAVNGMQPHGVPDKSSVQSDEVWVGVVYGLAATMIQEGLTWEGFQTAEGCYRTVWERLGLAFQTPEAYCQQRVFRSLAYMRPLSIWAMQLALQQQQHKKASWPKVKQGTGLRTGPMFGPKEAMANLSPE
# PPARA ligand-binding domain: Peroxisome proliferator-activated receptor alpha, ligand-binding domain (PPARA, Homo sapiens, UniProt Q07869)
# Sequence of UniProt Q07869 (whole entry, looked up): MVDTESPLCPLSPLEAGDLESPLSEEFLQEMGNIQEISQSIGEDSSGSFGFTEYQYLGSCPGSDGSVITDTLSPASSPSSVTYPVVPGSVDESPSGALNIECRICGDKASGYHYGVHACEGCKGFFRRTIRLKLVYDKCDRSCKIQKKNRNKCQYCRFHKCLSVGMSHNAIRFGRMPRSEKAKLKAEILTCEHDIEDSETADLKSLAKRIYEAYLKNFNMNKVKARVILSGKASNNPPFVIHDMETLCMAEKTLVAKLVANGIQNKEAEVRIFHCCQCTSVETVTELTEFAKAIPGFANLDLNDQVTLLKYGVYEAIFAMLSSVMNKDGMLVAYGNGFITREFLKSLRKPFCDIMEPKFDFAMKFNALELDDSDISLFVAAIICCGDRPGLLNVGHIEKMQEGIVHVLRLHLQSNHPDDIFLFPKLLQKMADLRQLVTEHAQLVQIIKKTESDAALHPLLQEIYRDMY
# Chymotrypsinogen A: Chymotrypsinogen A (Bos taurus, UniProt P00766)
# Sequence of UniProt P18405 (whole entry, looked up): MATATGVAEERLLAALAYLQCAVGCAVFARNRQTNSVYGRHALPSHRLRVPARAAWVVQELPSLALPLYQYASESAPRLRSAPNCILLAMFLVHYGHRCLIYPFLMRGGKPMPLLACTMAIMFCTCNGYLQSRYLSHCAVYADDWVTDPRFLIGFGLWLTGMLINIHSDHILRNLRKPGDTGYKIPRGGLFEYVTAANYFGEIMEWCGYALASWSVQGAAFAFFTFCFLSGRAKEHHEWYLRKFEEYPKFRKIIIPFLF
# Sequence of UniProt Q9NSU2 (whole entry, looked up): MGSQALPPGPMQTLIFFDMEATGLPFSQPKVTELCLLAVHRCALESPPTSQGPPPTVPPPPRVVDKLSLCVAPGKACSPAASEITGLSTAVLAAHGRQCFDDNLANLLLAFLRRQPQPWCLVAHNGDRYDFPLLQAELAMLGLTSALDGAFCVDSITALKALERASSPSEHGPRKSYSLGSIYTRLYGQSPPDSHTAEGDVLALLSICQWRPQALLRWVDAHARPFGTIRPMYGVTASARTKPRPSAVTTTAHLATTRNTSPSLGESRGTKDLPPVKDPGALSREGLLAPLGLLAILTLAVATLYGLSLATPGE
# Sequence of UniProt P48147 (whole entry, looked up): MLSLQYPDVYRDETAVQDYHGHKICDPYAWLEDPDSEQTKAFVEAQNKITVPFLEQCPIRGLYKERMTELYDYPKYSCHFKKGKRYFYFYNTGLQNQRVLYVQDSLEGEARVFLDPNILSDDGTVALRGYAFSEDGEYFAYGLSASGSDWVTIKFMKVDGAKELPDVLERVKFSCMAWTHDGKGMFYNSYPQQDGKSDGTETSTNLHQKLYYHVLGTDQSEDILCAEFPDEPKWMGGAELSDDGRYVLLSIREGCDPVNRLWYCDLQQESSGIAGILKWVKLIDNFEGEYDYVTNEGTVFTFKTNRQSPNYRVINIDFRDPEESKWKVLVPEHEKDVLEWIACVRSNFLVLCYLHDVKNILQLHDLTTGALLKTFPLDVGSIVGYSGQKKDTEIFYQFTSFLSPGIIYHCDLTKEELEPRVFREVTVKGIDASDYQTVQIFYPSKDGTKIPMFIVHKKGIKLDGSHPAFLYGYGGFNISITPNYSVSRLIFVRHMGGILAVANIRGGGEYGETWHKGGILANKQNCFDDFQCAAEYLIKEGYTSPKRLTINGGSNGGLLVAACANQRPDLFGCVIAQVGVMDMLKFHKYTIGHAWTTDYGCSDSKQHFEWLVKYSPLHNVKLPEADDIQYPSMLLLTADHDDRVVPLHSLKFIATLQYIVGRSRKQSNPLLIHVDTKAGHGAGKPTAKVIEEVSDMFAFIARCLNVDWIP
# Sequence of UniProt O14757 (whole entry, looked up): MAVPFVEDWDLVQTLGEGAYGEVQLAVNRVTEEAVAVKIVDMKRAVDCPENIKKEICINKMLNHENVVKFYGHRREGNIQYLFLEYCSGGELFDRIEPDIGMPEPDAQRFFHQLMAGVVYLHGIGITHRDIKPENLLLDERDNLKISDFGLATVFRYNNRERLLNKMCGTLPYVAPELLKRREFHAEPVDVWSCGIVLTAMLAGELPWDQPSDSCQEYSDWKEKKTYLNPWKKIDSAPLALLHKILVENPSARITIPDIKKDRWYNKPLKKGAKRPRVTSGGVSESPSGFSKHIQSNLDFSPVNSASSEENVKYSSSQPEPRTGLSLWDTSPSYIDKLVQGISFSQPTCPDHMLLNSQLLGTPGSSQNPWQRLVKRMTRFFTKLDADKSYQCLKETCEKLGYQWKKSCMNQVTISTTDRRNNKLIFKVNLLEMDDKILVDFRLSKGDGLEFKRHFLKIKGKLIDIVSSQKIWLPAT
# Sequence of UniProt P21860 (whole entry, looked up): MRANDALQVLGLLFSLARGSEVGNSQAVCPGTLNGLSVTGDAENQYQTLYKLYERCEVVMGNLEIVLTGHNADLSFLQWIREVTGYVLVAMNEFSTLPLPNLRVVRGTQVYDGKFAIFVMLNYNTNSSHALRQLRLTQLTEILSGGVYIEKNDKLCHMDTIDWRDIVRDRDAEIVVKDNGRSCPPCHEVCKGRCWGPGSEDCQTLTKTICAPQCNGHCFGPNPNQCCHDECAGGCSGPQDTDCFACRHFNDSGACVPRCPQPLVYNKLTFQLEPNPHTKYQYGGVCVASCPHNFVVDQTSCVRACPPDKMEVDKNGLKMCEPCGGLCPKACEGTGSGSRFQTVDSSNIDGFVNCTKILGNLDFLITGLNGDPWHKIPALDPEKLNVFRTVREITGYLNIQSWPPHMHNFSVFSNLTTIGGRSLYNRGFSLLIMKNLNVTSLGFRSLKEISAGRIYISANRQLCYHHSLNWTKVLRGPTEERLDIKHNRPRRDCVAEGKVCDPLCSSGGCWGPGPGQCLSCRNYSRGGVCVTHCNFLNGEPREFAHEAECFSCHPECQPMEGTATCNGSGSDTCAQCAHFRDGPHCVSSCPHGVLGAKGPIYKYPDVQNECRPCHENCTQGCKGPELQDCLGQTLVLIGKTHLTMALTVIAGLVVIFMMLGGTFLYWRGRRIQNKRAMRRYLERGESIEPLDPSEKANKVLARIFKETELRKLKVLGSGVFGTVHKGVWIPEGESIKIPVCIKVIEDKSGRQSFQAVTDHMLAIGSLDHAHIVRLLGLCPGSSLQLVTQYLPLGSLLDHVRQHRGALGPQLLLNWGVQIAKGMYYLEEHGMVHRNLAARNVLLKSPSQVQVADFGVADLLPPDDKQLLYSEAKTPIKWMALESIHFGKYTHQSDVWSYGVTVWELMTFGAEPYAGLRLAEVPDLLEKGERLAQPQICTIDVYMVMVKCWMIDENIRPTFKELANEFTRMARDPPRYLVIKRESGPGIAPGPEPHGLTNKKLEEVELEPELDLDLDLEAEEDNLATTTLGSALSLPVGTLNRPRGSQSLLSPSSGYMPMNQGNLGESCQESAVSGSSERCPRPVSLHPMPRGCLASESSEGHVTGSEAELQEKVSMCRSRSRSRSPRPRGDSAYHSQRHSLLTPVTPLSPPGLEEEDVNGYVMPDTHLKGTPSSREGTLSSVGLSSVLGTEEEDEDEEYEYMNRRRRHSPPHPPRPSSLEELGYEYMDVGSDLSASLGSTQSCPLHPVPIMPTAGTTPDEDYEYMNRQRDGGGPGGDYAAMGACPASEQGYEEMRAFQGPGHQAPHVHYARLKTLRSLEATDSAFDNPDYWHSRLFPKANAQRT
# Sequence of UniProt P33261 (whole entry, looked up): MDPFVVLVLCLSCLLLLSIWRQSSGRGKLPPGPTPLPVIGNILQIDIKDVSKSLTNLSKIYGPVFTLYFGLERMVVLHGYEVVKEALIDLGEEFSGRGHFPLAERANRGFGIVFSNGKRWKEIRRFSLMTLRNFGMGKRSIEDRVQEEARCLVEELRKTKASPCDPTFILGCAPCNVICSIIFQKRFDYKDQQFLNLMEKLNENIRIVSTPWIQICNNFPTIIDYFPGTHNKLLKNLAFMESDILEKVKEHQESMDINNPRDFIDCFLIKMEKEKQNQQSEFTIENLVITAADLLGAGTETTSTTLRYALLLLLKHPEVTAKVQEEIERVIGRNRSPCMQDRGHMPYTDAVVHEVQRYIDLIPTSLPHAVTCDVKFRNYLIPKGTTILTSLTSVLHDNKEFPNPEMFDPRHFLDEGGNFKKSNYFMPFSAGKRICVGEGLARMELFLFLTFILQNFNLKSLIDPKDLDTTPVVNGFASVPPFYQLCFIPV
Compound,target or system,test,system,conditions,how to read,endpoint,result
N#Cc1ccccc1-c1ccc(COCCCCCN2C[C@H](O)[C@@H](O)[C@H](O)[C@H]2CO)cc1,GBA2,"inhibitor, 4MU-β-D-glucopyranoside",HEK293T homogenates overexpressing GBA2,,,IC50,5 nM
O=C1Nc2ccccc2Nc2cc(Nc3ccc(Cl)cc3)ccc21,"CHEK1 (Homo sapiens, UniProt O14757)","enzyme activity, inhibitor",,,,IC50,> 10000 nM
CCCCCNC(=O)C1C(O)C(O)C(O)C(CO)N1CCCC (stereo not shown),GBA2,"inhibitor, 4MU-β-D-glucopyranoside",HEK293T homogenates overexpressing GBA2,,,IC50,20 nM
Cc1ccc(CN2C(=O)C3(c4ccccc42)C(c2ccc(F)cc2)NC2(C(=O)N(C(=O)CCc4ccccc4)c4ccccc42)N3Cc2ccc(F)cc2)cc1 (stereo not shown),"PIK3CG (Homo sapiens, UniProt P48736)","enzyme activity, inhibitor, ADP detection",,,,IC50,18.7 nM
COc1cc(/C=C/C(=O)Oc2cc(C(F)(F)F)ccc2C(F)(F)F)ccc1O,"SRD5A1 (Homo sapiens, UniProt P18405)","enzyme activity in cells, inhibitor",,,,IC50,8500 nM
COC1CN([C@H]2CC[C@H]([C@@]3(C)Oc4c(Cl)cc(C(=O)NCc5c(SC)cc(C)[nH]c5=O)c(C)c4O3)CC2)C1,,"RNA-seq, refers to: SHANK3 mouse homolog","mouse, HT-1376 xenograft, whole blood",dose not given,relative to: vehicle,log2 fold change,0.592
C=CC(=O)Nc1cc(-c2nn(C3CCN(CCNC(=O)[C@H](C)CCC45CC6CC(CC(C6)C4)C5)CC3)c3ncnc(N)c23)ccc1Oc1ccccc1,"ERBB3 (Homo sapiens, UniProt P21860)","cell-free assay, TR-FRET",,,,IC50,49 nM
Cc1c(Cc2cc(Cl)cc(O[C@@H](C)C(=O)O)c2)c2ccc(C(=O)N[C@@H](C)c3ccc(C(C)(C)C)cc3)cc2n1C,PPARA ligand-binding domain,"reporter gene, luciferase reporter","HEK293T, Gal4-PPARα LBD",,,IC50,36200 nM
OC[C@H]1[C@@H](O)[C@H](O)[C@@H](O)CN1CCCCCOCCC12CC3CC(CC(C3)C1)C2,GBA2,"inhibitor, 4MU-β-D-glucopyranoside",HEK293T homogenates overexpressing GBA2,,,IC50,6 nM
CC[C@H](C)[C@@H]1NC(=O)[C@H](Cc2ccccc2C(F)(F)F)NC(=O)CCSCc2cccc(n2)CSCCCNC(=O)[C@H](CCCCCC(=O)NO)NC1=O,"HDAC2 (Homo sapiens, UniProt Q92769)","enzyme activity, inhibitor, fluorescence",,,,IC50,16 nM
CNC(=O)C1CCCN(C(=O)C2CC3CCC2N3C(=O)[C@@H]2C[C@@H](O)CN2C(=O)NCc2cccc(Cl)c2F)C1 (mixture of isomers),"CYP2C19 (Homo sapiens, UniProt P33261)","enzyme activity, inhibitor, time-dependent inhibition",,"5.56 µM, preincubated with NADPH",relative to: negative control,remaining activity,113%
C=CC(=O)Nc1cccc(Cn2ncc3cnc(Nc4cnn(CCOC)c4)nc32)c1,TSSK1B human,"binding, KINOMEscan",,100 nM,lower = stronger binding,percent of control,100%
Cc1cccc(C2CC(=O)N2S(=O)(=O)c2cccc(Cl)c2)c1 (stereo not shown),Chymotrypsinogen A,"enzyme activity, inhibitor, fluorescence",,,,IC50,370 nM
O=S(=O)(O)c1cc(O)c2ccc(Nc3ccc4c(O)cc(S(=O)(=O)O)cc4c3)cc2c1,"TREX1 (Homo sapiens, UniProt Q9NSU2)","enzyme activity, inhibitor",,,,IC50,1930 nM
Cc1nn(-c2cccc(N)c2)c(=O)c2cnc(Nc3ccc(N4CCNCC4)cc3)nc12,"FYN (Homo sapiens, UniProt P06241)","enzyme activity, inhibitor",,,,IC50,2810 nM
CC(C)Cn1cc(Cc2cccc(OC(C)(C)C(=O)O)c2)c2ccc(C(=O)N[C@@H](C)c3cccc(C(C)(C)C)c3)c(F)c21,PPARA ligand-binding domain,"reporter gene, luciferase reporter","HEK293T, Gal4-PPARα LBD",,,IC50,> 100000 nM
Cc1ncsc1-c1ccc(C(C)NC(=O)C2CC(O)CN2C(=O)C(NC(=O)CCCCCCCCCCN2CCCC(Nc3ncc(Cl)c(Nc4ccccc4S(=O)(=O)C(C)C)n3)C2)C(C)(C)C)cc1 (stereo not shown),22Rv1,"RNA-seq, refers to: ZBED8 mRNA",,concentration not given,relative to: DMSO,log2 fold change,-2.46
Cc1c(Cc2cccc(OC(C(=O)O)C3CC3)c2)c2ccc(C(=O)NC(C)c3cccc(C(C)(C)C)c3)cc2n1C (mixture of isomers),PPARA ligand-binding domain,"reporter gene, luciferase reporter","HEK293T, Gal4-PPARα LBD",,,IC50,1390 nM
CNS(=O)(=O)Nc1nccc(Cc2c(C)c3ccc(Oc4ncccc4F)cc3oc2=O)c1F,SK-N-AS,"cell viability, CellTiter-Glo",,7 days,,IC50,6.92 nM
Nc1ncc(-c2cc(-c3cnn(CC(F)(F)F)c3)ncc2F)nc1C(=O)NC1CNCC(F)C1 (stereo not shown),SRPK2,KINOMEscan,,1 µM,relative to: DMSO control,remaining binding,66%
CC[C@@H]([C@H](C)c1ccc(O)cc1)[C@@H](CC)c1ccc(O)cc1,"Estrogen receptor (ESR1, Homo sapiens, UniProt P03372)","reporter gene, luciferase reporter (3xERE)",293T,24 h,,EC50,108 nM
CN1CCCNC(=O)c2cccc(c2)C(=O)NCCCN(C)CCCNc2cccc3c2C(=O)c2cccc(c2C3=O)NCCC1,SAS,"RNA-Seq, refers to: MANF mRNA",,"1 µM, 6 h",relative to: untreated cells,log2 fold change,-0.689
Cc1ccc(S(=O)(=O)N2N=Cc3ccsc3B2O)cc1,"PLAU (Homo sapiens, UniProt P00749)","enzyme activity, inhibitor",,,,IC50,> 100000 nM
O=C(Cc1nn(CCc2ccccc2)c2nccc(Cl)c12)N1CCCC1,"PREP (Homo sapiens, UniProt P48147)","enzyme activity, inhibitor, fluorescence",,,,IC50,2300 nM
O=C(Nc1ccccc1OCCc1ccccc1)C(C(F)(F)F)C(F)(F)F,Chymotrypsinogen A,"enzyme activity, inhibitor, fluorescence",,,,IC50,24000 nM

# For quick reference, copied from above:
Compound,target or system,test,system,conditions,how to read,endpoint,result
COc1cc(/C=C/C(=O)Oc2cc(C(F)(F)F)ccc2C(F)(F)F)ccc1O,"SRD5A1 (Homo sapiens, UniProt P18405)","enzyme activity in cells, inhibitor",,,,IC50,8500 nM
OC[C@H]1[C@@H](O)[C@H](O)[C@@H](O)CN1CCCCCOCCC12CC3CC(CC(C3)C1)C2,GBA2,"inhibitor, 4MU-β-D-glucopyranoside",HEK293T homogenates overexpressing GBA2,,,IC50,6 nM
O=C1Nc2ccccc2Nc2cc(Nc3ccc(Cl)cc3)ccc21,"CHEK1 (Homo sapiens, UniProt O14757)","enzyme activity, inhibitor",,,,IC50,> 10000 nM
C=CC(=O)Nc1cccc(Cn2ncc3cnc(Nc4cnn(CCOC)c4)nc32)c1,TSSK1B human,"binding, KINOMEscan",,100 nM,lower = stronger binding,percent of control,100%
